Results collected from several papers.
Each line is one published result; not all experiments were run side by side. ± gives the spread as reported.
Organism: Influenza A virus

SMILES | assay | system | conditions | scale | measurement | value
CC1(C)CCC2(C(=O)NCc3ccccc3)CCC3(C)C(=CCC4C5(C)CCC(OC(=O)C6CC(OC(=O)c7cccc(O)c7O)CN6C(=O)c6cccc(O)c6O)C(C)(C)C5CCC43C)C2C1 (stereo not drawn) | viral replication | MDCK, A/WSN/1933 (H1N1) | 48 h | – | EC50 | 0.88 ± 0.18 µM
C[C@H](O)CC(=O)OCCc1ccc(O)cc1 | viral replication, inhibitor | H1N1 WSN | 10 µM | – | inhibition | 58.1%
O=C(Nc1ccccc1SSc1ccccc1NC(=O)c1ccccc1)c1ccccc1 | – | A/NWS/33 (H1N1), mouse, bronchoalveolar lavage fluid | oral, 1 mg/mouse/day, day 14 | relative to: untreated infected control | neutralizing antibody titre | 2.4 fold
COc1cc(CCO)ccc1O | viral replication, inhibitor | H1N1 WSN | 10 µM | – | inhibition | 0%
CN(C)CC1CN(S(=O)(F)=Nc2cc(Cl)c(C(=O)N3CCO[C@@H](c4ccccc4)C3)c(Cl)c2)C1 (stereo partly drawn) | viral replication | – | 72 h | – | EC50 | 0.02 µM
OC[C@H]1O[C@@H](OCCc2ccccc2)[C@H](O)[C@@H](O)[C@@H]1O | viral replication, inhibitor | H1N1 WSN | 10 µM | – | inhibition | 41%
CC1(C)CCC2(C(=O)NCc3ccccc3)CCC3(C)C(=CCC4C5(C)CCC(OC(=O)C6CC(OC(=O)C7CC(O)C(O)C(O)C7)CN6C(=O)c6ccc(O)c(O)c6)C(C)(C)C5CCC43C)C2C1 (stereo not drawn) | – | MDCK, A/WSN/1933 (H1N1) | – | relative to: CC50 over EC50 | selectivity index | 42.3
C=CCC1=C(C(=O)O)O[C@@H]([C@H](O)[C@H](O)CO)[C@H](NC(C)=O)[C@H]1O | viral replication | A/Paris/0497/2007 (H1N1) | 72 h | – | EC50 | 1800 µM
COc1ccc(C(=O)N2CC(OC(=O)c3ccc(F)c(F)c3)CC2C(=O)OC2CCC3(C)C(CCC4(C)C3CC=C3C5CC(C)(C)CCC5(C(=O)NCc5ccccc5)CCC34C)C2(C)C)cc1OC (stereo not drawn) | – | MDCK, A/WSN/1933 (H1N1) | – | relative to: CC50 over EC50 | selectivity index | > 27.6
CC(=O)N[C@H]1[C@H]([C@H](O)[C@H](O)CO)OC(C(=O)O)=C(C/C=C/c2ccc(C)cc2)[C@@H]1O | viral replication | A/Paris/908/97 (H3N2) | 72 h | – | EC50 | > 1000 µM
COc1ccc(C(=O)OC2CC(C(=O)OC3CCC4(C)C(CCC5(C)C4CC=C4C6CC(C)(C)CCC6(C(=O)NCc6ccccc6)CCC45C)C3(C)C)N(C(=O)c3ccc(OC)c(OC)c3)C2)cc1OC (stereo not drawn) | viral replication | MDCK, A/WSN/1933 (H1N1) | 48 h | – | EC50 | 4.02 ± 1.42 µM
C[C@@H](CO)C(=O)OCCc1ccc(O)cc1 | viral replication, inhibitor | H1N1 WSN | 10 µM | – | inhibition | 39.5%

For quick reference, copied from above:
SMILES | assay | system | conditions | scale | measurement | value
C=CCC1=C(C(=O)O)O[C@@H]([C@H](O)[C@H](O)CO)[C@H](NC(C)=O)[C@H]1O | viral replication | A/Paris/0497/2007 (H1N1) | 72 h | – | EC50 | 1800 µM
